Assay results from different studies.
Values joined by “and” are separate records of one study, mostly repeats; a detail may differ.
Target: Tyrosine-protein kinase ITK/TSK (ITK, Homo sapiens, UniProt Q08881)

`COc1c(Cl)cccc1Nc1c(-c2ccncc2C#C[C@@]2(C)CCCN2C(=O)/C=C/CN(C)C)[nH]c2c1C(=O)NCC2` gave a remaining binding of 91% (cell-free assay, competition with immobilised ligand; 3 µM).
With `Cc1cnc2nc1Nc1cccc(c1)COC/C=C/COCc1cc(ccc1OCCN1CCOCC1)N2` the remaining signal was 90% (cell-free assay; 0.1 µM).
The inhibition of `C[C@H]1CN(C(=O)c2cn(-c3ccnc(N)n3)c3cc(C#CC4(O)CCCCC4)ccc23)CCN1` is reported as 8% (enzyme activity, inhibitor, FRET; 1 µM).
For `Cc1ccc(-c2c(/C=C(\C#N)C(=O)NC(C)C)n(CCCO)c3ncnc(N)c23)cc1`, the remaining binding was 76% (cell-free assay, competition with immobilised ligand; 1 µM).
`O=C=[N][Ru-4]123([n]4c5ccc(O)cc5c5c6c(c7cc(F)c[n+]1c7c54)C(=O)NC6=O)[S+]1CC[S+]2CC[S+]3CC1` (centres unmarked) has a remaining activity of 96% (enzyme activity; 100 nM, human enzyme, with: 10 µM ATP; baseline: untreated).
With `CN1CCN(Cc2ccc(-c3ccc(CO[C@H]4CCC[C@@H]4NC(=O)c4cc(-c5cnn(C)c5)cnc4N)cc3)cc2)CC1` the inhibition was -5% (enzyme activity, inhibitor; 0.1 µM).
`C=CC(=O)N1CCc2ccc(-n3c(=O)ccc4cnc5ccc(-c6cnn(C)c6)cc5c43)cc21` gave a remaining binding of 92% (KINOMEscan; 1 µM; baseline: DMSO control).
`CC(C)=CC1OC(C)(C)C2C=C3C(=O)C(Cl)=CC(O)C3C3C(O)C4OC4C(=O)C132` (centres unmarked) gave a remaining binding of 90% (cell-free assay, competition with immobilised ligand; 10 µM).
`C=CC(=O)Nc1cccc(-c2cnc3[nH]cc(C(=O)NC(C)(C)C)c3n2)c1` has an inhibition of 50% and 65% (kinase activity; 0.1 µM).
With `COc1cc(Nc2nc(C)cc(-c3cnn4nc(OC)ccc34)n2)cc(C(F)(F)F)c1` the remaining activity was 82% (inhibitor; 1 µM; baseline: control).
The inhibition of `NC(=O)[C@@H](O)C[C@H]1CCc2sc3ncnc(O[C@H]4CC[C@H](N5CCOCC5)CC4)c3c21` is reported as 46% (enzyme activity, inhibitor; 10 µM).
With `CCN1CCN(Cc2ccc(C(=O)Nc3ccc(C)c(NCc4cnc5[nH]ccc5c4OC)c3)cc2C(F)(F)F)CC1` the remaining binding was 100% (binding, competition with immobilised ligand; 1 µM).
The inhibition of `Cc1cccc(O[C@H]2CCC[C@@H](C(C)CNCc3ccncc3)C2)c1` (relative stereo) is reported as 1% (kinase activity, kinome panel screening; 1 µM).
For `CNC(=O)C[C@H](Cc1ccc(C#N)cc1)NC(=O)c1cc(-c2ccc(CN[C@H](C)c3ccc(C)cc3)o2)ccc1Cl`, “activity vs control” read 105% (enzyme activity, inhibitor; 1 µM).
`COCC12C(=O)NC3C4(C(OC)CC1O)C1CC5(O)C(OC)C(O)C(OC(C)=O)(C1C5OC(=O)c1ccccc1)C3(O)C(OC)C24` (centres unmarked) gave a remaining activity of 111% and 106% (kinase activity, inhibitor, ProQinase kinase profiling; 25 µM; baseline: control).
`C=CC(=O)N1Cc2nc(-c3cc(-c4cc(Cl)cnc4Cl)c(F)cc3F)n(-c3ccncn3)c2C1` has an inhibition of 12.9% (cell-free assay, inhibitor; 1 µM).
For `Nc1ncc2c(n1)-c1c([nH]c3ccc(C4=CCOCC4)cc13)CCC2`, the remaining binding was 100% (binding, competition with immobilised ligand; 1 µM).
